# Experimental data pooled from the literature.
# Lines come from different studies, so protocols differ.
# Target: Histone deacetylase 8 (HDAC8, Homo sapiens, UniProt Q9BY41)
# Observed: enzyme activity
# Mode: inhibitor
# Residues used in one study (Q9BY41 1-377): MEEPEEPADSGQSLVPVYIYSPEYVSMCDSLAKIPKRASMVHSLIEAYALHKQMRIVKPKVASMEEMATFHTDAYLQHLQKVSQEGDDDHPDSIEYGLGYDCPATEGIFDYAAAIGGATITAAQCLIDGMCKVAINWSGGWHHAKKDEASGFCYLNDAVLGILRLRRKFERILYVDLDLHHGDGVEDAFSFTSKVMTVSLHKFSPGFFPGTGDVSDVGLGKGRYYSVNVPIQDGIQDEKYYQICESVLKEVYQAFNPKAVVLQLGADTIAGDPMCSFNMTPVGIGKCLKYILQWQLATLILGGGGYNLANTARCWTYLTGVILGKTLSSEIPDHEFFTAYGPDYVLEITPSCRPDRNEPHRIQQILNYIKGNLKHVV
Compound,method,IC50
CC(C)c1ccc(OS(=O)(=O)Oc2cncc(C(=O)NO)c2)cc1,fluorescence,0.894 µM
Nc1ccc(-c2ccc(F)cc2)cc1NC(=O)C1CCOCC1,,> 33.3 µM
Cc1c(COc2cc(OCc3cccc(C#N)c3)c(CNC(C)(CO)CO)cc2Cl)cccc1-c1cccc(OCCCCCC(=O)NO)c1,,> 1 µM
O=C(NO)c1cc(F)cc(OS(=O)(=O)Oc2ccc3ccccc3c2)c1,fluorescence,1.26 µM
Cc1c(COc2cc(OCc3cccc(C#N)c3)c(CNC(CO)(CO)CO)cc2Cl)cccc1-c1cccc(OCCCCCC(=O)NO)c1,,> 1 µM
CC[C@H](C)[C@@H]1NC(=O)[C@H](Cc2ccccc2C(F)(F)F)NC(=O)CCSCc2cccc(n2)CSCCCNC(=O)[C@H](CCCCCC(=O)NO)NC1=O,fluorescence,0.15 µM
CN(Cc1ccc(/C=C/C(=O)NO)cc1)CC12CC3CC(CC(C3)C1)C2,,> 15 µM
O=C(NO)c1cccc(OS(=O)(=O)Oc2cccc([N+](=O)[O-])c2)c1,fluorescence,0.034 µM
O=C(CCc1ccc(CNC(C(=O)OC2CCCC2)C2CCCCC2)cn1)NO (stereo not shown),,1.12 µM
Cc1c(COc2cc(OCc3cccc(C#N)c3)c(CN3CCCC[C@H]3C(=O)O)cc2Cl)cccc1-c1cccc(OCCCCCC(=O)NO)c1,,> 1 µM
Cc1nc2c(F)cc(-c3nc(Nc4ccc(CNC(=O)CCCCCCC(=O)NO)cc4)ncc3F)cc2n1C(C)C,,> 10 µM
Cc1cc(C(C)(C)C)ccc1OS(=O)(=O)Oc1cccc(/C=C/C(=O)NO)c1,fluorescence,6.61 µM
Cc1c(COc2cc(OCc3cccc(C#N)c3)c(CNC(CO)CO)cc2Cl)cccc1-c1cccc(OCCCCCCC(=O)NO)c1,,> 1 µM
CCCCCCCCCCCCCCN(O)C(=O)CCCCC[C@@H]1NC(=O)[C@H]([C@@H](C)CC)NC(=O)[C@H](Cc2ccccc2C(F)(F)F)NC(=O)CCSCc2cccc(n2)CSCCCNC1=O,fluorogenic,> 30 µM
Cc1c(COc2cc(OCc3cccc(C#N)c3)c(CN3CCCC[C@@H]3C(=O)O)cc2Cl)cccc1-c1cccc(OCCCCCCC(=O)NO)c1,,> 1 µM
O=C(NO)c1cc(F)cc(OS(=O)(=O)Oc2ccc(Br)cc2)c1,fluorescence,1.21 µM

# Repeated from above:
Compound,method,IC50
O=C(NO)c1cc(F)cc(OS(=O)(=O)Oc2ccc(Br)cc2)c1,fluorescence,1.21 µM
Cc1c(COc2cc(OCc3cccc(C#N)c3)c(CNC(CO)CO)cc2Cl)cccc1-c1cccc(OCCCCCCC(=O)NO)c1,,> 1 µM
Cc1c(COc2cc(OCc3cccc(C#N)c3)c(CNC(C)(CO)CO)cc2Cl)cccc1-c1cccc(OCCCCCC(=O)NO)c1,,> 1 µM
